Assay results gathered from unrelated publications.
Parts stem from different laboratories: compare values within a part only. Substitutions count along the parent as printed.
Chain of UniProt Q38830 (whole entry, looked up): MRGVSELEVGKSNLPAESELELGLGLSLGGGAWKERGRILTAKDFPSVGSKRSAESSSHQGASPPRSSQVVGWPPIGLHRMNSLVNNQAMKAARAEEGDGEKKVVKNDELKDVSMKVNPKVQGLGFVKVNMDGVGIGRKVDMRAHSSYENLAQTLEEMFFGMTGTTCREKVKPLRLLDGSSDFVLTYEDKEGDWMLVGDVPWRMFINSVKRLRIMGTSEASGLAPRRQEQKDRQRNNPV
Chain of UniProt Q8LAL2 (whole entry, looked up): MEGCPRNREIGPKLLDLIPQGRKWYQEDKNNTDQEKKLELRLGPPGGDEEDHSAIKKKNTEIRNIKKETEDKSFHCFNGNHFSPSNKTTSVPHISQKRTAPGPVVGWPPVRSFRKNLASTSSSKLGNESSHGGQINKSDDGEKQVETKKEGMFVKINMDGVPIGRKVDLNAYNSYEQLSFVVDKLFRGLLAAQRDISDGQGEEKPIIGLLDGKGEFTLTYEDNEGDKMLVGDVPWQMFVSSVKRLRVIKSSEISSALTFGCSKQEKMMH
Chain of UniProt Q9FGV1 (whole entry, looked up): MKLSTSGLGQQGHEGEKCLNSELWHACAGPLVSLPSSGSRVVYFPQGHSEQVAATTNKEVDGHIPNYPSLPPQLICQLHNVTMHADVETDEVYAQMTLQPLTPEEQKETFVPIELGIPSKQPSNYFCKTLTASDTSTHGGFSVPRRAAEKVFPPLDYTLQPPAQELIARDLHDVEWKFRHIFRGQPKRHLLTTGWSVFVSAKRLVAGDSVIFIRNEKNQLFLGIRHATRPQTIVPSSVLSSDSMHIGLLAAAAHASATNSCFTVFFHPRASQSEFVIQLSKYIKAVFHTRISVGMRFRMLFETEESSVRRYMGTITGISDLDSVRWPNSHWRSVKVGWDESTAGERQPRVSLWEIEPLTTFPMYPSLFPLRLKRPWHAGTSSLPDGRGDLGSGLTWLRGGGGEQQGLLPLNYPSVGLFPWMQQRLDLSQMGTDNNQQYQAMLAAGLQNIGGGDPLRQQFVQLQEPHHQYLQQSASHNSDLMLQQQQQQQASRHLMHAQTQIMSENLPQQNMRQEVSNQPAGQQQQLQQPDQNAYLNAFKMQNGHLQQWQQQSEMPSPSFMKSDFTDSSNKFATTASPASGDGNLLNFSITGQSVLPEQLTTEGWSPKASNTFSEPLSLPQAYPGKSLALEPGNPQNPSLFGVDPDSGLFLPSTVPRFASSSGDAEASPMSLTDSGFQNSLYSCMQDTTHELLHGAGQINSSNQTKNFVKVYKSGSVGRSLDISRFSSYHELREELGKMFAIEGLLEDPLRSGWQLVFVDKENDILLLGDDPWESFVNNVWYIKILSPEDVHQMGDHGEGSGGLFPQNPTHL

Set 1 — target: CCNB3, cyclin fold, Cln2 fusion (human); method: yeast growth competition, sequencing; matrix: yeast; setting: weak parent motif; reference: not given; direction: higher = stronger binding
Starting sequence: RBL1 docking peptide (human); GSAKRRLFGEDPP
For `E10L`, “normalised enrichment score” read 0.407.
`P13R` — result for “normalised enrichment score”: 0.396.
`K4S` — result for “normalised enrichment score”: 0.431.
For `P13Y`, “normalised enrichment score” read -0.0551.
Under “normalised enrichment score”, `P12M` is recorded as 0.387.
Under “normalised enrichment score”, `G1M` is recorded as 0.309.
`D11L` — result for “normalised enrichment score”: 0.645.
For `S2H`, “normalised enrichment score” read 0.658.
`S2K` — result for “normalised enrichment score”: 0.294.
Under “normalised enrichment score”, `A3Y` is recorded as 0.365.
`R5L` — result for “normalised enrichment score”: -0.00989.
Under “normalised enrichment score”, `R6V` is recorded as 0.71.
Under “normalised enrichment score”, `P12F` is recorded as 0.812.
`P13A`: “normalised enrichment score” 0.787.
For `S2W`, “normalised enrichment score” read -0.0537.
`F8A`: “normalised enrichment score” 0.0813.
Under “normalised enrichment score”, `A3F` is recorded as 0.425.
`G1I`: “normalised enrichment score” 1.47.

Set 2 — method: protein-binding microarray; form: double-stranded DNA, one strand shown; matrix: in vitro; tested at: not given; direction: higher = stronger binding
Target: Hepatocyte nuclear factor 3-beta, forkhead domain (FOXA2, Homo sapiens, UniProt Q9Y261, residues 142-269)
Setting: k-mer, scored over probes, only values ≥0.25
Construct (chain): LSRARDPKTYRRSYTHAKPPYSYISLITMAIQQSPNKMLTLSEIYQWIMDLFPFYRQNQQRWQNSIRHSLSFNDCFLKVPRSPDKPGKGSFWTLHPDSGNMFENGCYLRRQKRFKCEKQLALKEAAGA
For `CTAACACA`, the E-score was 0.298.
For `TGTGTAAA`, the E-score was 0.34.
`TCGGTAAA` has an E-score of 0.279.
`GCATAACA` gave an E-score of 0.302.
`GTAATTAA` has an E-score of 0.29.
`TAATATTA` gave an E-score of 0.357.
`ATTGTTGG` has an E-score of 0.298.
`TACATTGA` gave an E-score of 0.257.
With `CTATAAAC` the E-score was 0.274.
`ATATAGAC` has an E-score of 0.346.
With `CGATATTA` the E-score was 0.315.
`AACACAAT` gave an E-score of 0.343.
`TAGTTGAA` gave an E-score of 0.257.
The E-score of `TATACAAA` is reported as 0.394.
With `ACTCTTAC` the E-score was 0.273.

Set 3 — method: RNA Bind-n-Seq; form: RNA; matrix: in vitro; tested at: 90 pmol; setting: 4-mer, random 30-nt RNA, single round; together with: 3 µM DMDA-PatA, 2 mM ADP, 2 mM phosphate; reference: input library; direction: higher = stronger binding
Target: Eukaryotic initiation factor 4A-I (EIF4A1, Homo sapiens, UniProt P60842, residues 1-406, full length assumed)
Chain of UniProt P60842 (whole entry, looked up): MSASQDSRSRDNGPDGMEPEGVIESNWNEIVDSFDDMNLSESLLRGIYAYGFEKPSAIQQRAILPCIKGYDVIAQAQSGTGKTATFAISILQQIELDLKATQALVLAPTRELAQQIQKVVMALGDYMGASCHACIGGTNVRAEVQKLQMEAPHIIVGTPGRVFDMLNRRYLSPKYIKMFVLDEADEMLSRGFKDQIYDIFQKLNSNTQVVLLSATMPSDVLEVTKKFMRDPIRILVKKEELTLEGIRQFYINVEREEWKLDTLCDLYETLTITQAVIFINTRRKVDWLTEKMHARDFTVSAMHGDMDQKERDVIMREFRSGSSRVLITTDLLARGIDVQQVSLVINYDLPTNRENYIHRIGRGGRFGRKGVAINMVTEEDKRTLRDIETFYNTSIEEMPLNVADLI
The 4-mer enrichment of `ACGG` is reported as 0.779 fold.
`UCGU` has a 4-mer enrichment of 0.667 fold.
With `CGCA` the 4-mer enrichment was 0.806 fold.
`AGAU` has a 4-mer enrichment of 0.909 fold.
The 4-mer enrichment of `GUAA` is reported as 1.13 fold.
For `UAGU`, the 4-mer enrichment was 1.07 fold.
With `GUUG` the 4-mer enrichment was 1.17 fold.

Set 4 — method: RNA Bind-n-Seq; form: RNA; matrix: in vitro; tested at: 200 nM; setting: whole 134-nt RNA, ends assumed; together with: 150 mM LiCl; reference: input library; direction: higher = stronger binding; all molecules: 7-deaza-guanosine replaces G
Target: Fragile X messenger ribonucleoprotein 1, C-terminal low-complexity region (Fmr1, Mus musculus, UniProt P35922)
Shared flanks, not repeated: GGGAGUUCUACAGUCCGACGAUC … UGGAAUUCUCGGGUGUCAAGG
For `GCAGGAAGUAAAAACAAAUGGAAAUGCUUCGGAUAGUGGCAGGGGUGGGGGUUGCUAAGGAAAGGGUGGGAUGGGAGUCGGUAAAGAGUU`, the log2 enrichment was 0.862.
With `CUGUGCUACACAUCGUAUGUACCGAAUCGGCCCCCCCGGGCCCCCCCGGGGCCCCCCCGGGAAAGUAUUAUGUUACGCCGUUCGGAUCUG` the log2 enrichment was -0.441.
With `GUCCUGUGCUACACAUCGUAUGUACCGAAUCGGAAAAAGGGGAAAAAGGGGAAAAAGGGAAAGUAUUAUGUUACGCCGUUCGGAUCUGCA` the log2 enrichment was 0.514.
With `ACCAUGCAGGUGGGCAUCUUUGGGAAGUGGGGCAAGGGGGGGAUAGGGAGGGGGGUAACACUUUGGGAACAGGUGGUCCCAGGUCGUUGC` the log2 enrichment was 1.07.
For `UCAAGUCCUGUGCUACACAUCGUAUGUACCGAAUCGGGUUUUUGGGUGGGUGGGAAAGUAUUAUGUUACGCCGUUCGGAUCUGCACUUCC`, the log2 enrichment was -1.39.
`AGUCCUGUGCUACACAUCGUAUGUACCGAAUCGGGAGGGAAAAAGGGAAAAAAAGGGAAAGUAUUAUGUUACGCCGUUCGGAUCUGCACU` gave a log2 enrichment of -0.469.
The log2 enrichment of `CAAGUCCUGUGCUACACAUCGUAUGUACCGAAUCGGGUGGGAAAAAGGGUUUGGGAAAGUAUUAUGUUACGCCGUUCGGAUCUGCACUUC` is reported as -2.32.
`UGGGAGGUGGAUUUUGUUUAUUUUUUUAGCUCAUUUCCAGGGGUGGGCAUUUUUUUUUAAUAUGUGUCAUGAAUAAAGUUGUUUUUGAAA` gave a log2 enrichment of -0.111.

Set 5 — method: two-hybrid; direction: higher = firmer interaction
Substance: IAA9 (Arabidopsis thaliana, UniProt Q38827)
Chain of UniProt Q38827 (whole entry, looked up): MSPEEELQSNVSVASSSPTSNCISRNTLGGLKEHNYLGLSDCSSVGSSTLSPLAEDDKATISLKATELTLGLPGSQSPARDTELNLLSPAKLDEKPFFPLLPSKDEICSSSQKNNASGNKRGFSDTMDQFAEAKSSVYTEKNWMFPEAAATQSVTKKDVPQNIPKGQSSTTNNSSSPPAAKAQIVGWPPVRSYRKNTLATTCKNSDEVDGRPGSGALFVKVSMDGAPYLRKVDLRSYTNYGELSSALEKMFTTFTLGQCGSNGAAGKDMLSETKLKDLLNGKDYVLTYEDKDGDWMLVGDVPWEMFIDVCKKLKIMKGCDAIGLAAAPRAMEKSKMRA
The positive tests was 4 (IAA12 (Arabidopsis thaliana, UniProt Q38830); reference: out of 4 tests).
IAA26 (Arabidopsis thaliana, UniProt Q8LAL2); reference: out of 4 tests — positive tests: 4.
The positive tests was 1 (ARF8 699-811 (Arabidopsis thaliana, UniProt Q9FGV1); reference: out of 2 tests).

Set 6 — method: RNA Bind-n-Seq; form: RNA; matrix: in vitro; tested at: 365 nM; reference: no-protein control; direction: higher = stronger binding
Target: RNA binding protein fox-1 homolog 2, RRM domain, GST-SBP tag (RBFOX2, Homo sapiens, UniProt O43251-10, residues 100-194)
Setting: natural RNA segment, single round, ends assumed
Shared flanks, not repeated: GGGAGUUCUACAGUCCGACGAUC … UGGAAUUCUCGGGUGCCAA
Target sequence (chain): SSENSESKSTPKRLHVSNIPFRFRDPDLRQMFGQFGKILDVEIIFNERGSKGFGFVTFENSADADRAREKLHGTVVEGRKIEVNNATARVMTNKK
`GGUGUGACAGCAUGACAGGUUUGCUCUGCUUCUGCAGAGUGGGCCCCAGAGGUCACUUAGGACUGAGAUGCUCCAAAGUUUGAAGUGCCAAAUAACAUGAAACGUGCUCU` — result for “RBNS enrichment (R)”: 9.71.
`AAAACAGACAUCUUUGAUUUCUGAUUAAGAAAAAGCACUCUACAUCUUUUUUUUUUAAGUUUUCUAAGUUUGUUCCUUCUGAGAGAUUAAGUAAAAAACACCUUUAAAAU`: “RBNS enrichment (R)” 0.415.
Under “RBNS enrichment (R)”, `UGGGCAGGAGGGCUUGUGCAGGGUUUUGUAAGCAGUGAUCUAGUUUCAUUAAAAAAAGAAAACAAUACCAUAACCACCUCCCCGUGUCUGUCUGCACCAGGAGCACCUGG` is recorded as 0.323.
For `GCCAAAGACUGGUGGUGGGUCCACGGAAUCUGCCCUGUGACAUGAAAGGCUUUGAGGGGCUCUGGCUGGUGGCCAGGUUGGCUUUUUGUAUUUCUGGUUGACACACCAUG`, “RBNS enrichment (R)” read 0.897.
`GUAGGGAGUGUUUAGUGGACAAUAGUGUAGGUUAUGGAUGGAGGUGUCGGUACUAAAUUGAAUAACGAGUAAAUAAUCUUACUUGGGUAGAGAUGGCCUUUGCCAACAAA`: “RBNS enrichment (R)” 1.31.
`CUAAAUUCUUUACCAUCAGAAAGAAAAGGAGUGUCAUACACUUUCAAGGGAAGGCUUGGUCUGCGUUUUCUGUGUUUGGAUUAUUUUUAUACUUUGCUGAUCUUUAAGCU`: “RBNS enrichment (R)” 0.812.

Set 7 — method: protein-binding microarray; form: double-stranded DNA, one strand shown; matrix: in vitro; tested at: 2540 nM top; setting: 60-bp whole probe; together with: salmon DNA 0.4 mg/ml; reference: random background probes; direction: higher = stronger binding; shared flanks, not repeated: GCCTAGCAC … GTCTTGATTCGCTTGACGCTGCTG
Target: Interferon regulatory factor 3, full length, phosphomimetic (IRF3, Homo sapiens, UniProt Q14653, residues 1-427, S386D/S396D/S398D/S402D/T404D/S405D)
Target sequence (chain): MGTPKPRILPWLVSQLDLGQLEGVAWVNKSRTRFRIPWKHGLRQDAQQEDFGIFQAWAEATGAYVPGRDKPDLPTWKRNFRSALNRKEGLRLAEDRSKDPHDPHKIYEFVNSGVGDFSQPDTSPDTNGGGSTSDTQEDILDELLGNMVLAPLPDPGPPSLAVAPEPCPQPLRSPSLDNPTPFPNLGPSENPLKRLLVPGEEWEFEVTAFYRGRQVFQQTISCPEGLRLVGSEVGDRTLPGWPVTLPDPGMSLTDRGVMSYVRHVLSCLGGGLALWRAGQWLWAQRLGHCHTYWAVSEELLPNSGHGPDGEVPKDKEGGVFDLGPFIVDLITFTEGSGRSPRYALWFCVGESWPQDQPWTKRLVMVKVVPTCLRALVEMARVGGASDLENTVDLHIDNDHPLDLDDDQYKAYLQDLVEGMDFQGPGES
For `GGCTCCTCCCCGCTTCTGGAGTGCTAG`, “fitted relative affinity” read -0.509 z-score.
`TTAGATGTCGGGTTTCGATTAGTGCTA`: “fitted relative affinity” 1.83 z-score.
`GACGATATCGGGTTTCTAGACGTGCTA`: “fitted relative affinity” 0.536 z-score.
For `TTAGGTTTCGTTTTCGGTTAGTGCTAG`, “fitted relative affinity” read 9.02 z-score.
`TTAGGACTGGGTTTCTGTTAGTGCTAG`: “fitted relative affinity” 0.629 z-score.
For `GACGGAATCGGGACTGGGGACGTGCTA`, “fitted relative affinity” read -0.0627 z-score.
`GACGATATCAGAATGGAGACGTGCTAG` — result for “fitted relative affinity”: 1 z-score.
For `GCACTCTTCTTTTTTTTCTTGTGCTAG`, “fitted relative affinity” read 1.85 z-score.
`TTAGGCCTGCTTTTCCTTTAGTGCTAG` — result for “fitted relative affinity”: 0.491 z-score.
For `TTACGTCTCGGACTGGGTTAGTGCTAG`, “fitted relative affinity” read -0.235 z-score.
`ATTGCTTCCTCTTTCACTGCGTGCTAG`: “fitted relative affinity” 1.48 z-score.

Mixed results
`GGAGTGCGCACTCC (dsDNA)` gave a relative binding of 32 (KAT6A 1-85 K24A (Homo sapiens, UniProt Q92794); ITC; double-stranded DNA, one strand shown; reference: WT).

Repeated from above (set 4):
For `GCAGGAAGUAAAAACAAAUGGAAAUGCUUCGGAUAGUGGCAGGGGUGGGGGUUGCUAAGGAAAGGGUGGGAUGGGAGUCGGUAAAGAGUU`, the log2 enrichment was 0.862.
The log2 enrichment of `CAAGUCCUGUGCUACACAUCGUAUGUACCGAAUCGGGUGGGAAAAAGGGUUUGGGAAAGUAUUAUGUUACGCCGUUCGGAUCUGCACUUC` is reported as -2.32.
With `CUGUGCUACACAUCGUAUGUACCGAAUCGGCCCCCCCGGGCCCCCCCGGGGCCCCCCCGGGAAAGUAUUAUGUUACGCCGUUCGGAUCUG` the log2 enrichment was -0.441.
`UGGGAGGUGGAUUUUGUUUAUUUUUUUAGCUCAUUUCCAGGGGUGGGCAUUUUUUUUUAAUAUGUGUCAUGAAUAAAGUUGUUUUUGAAA` gave a log2 enrichment of -0.111.
For `UCAAGUCCUGUGCUACACAUCGUAUGUACCGAAUCGGGUUUUUGGGUGGGUGGGAAAGUAUUAUGUUACGCCGUUCGGAUCUGCACUUCC`, the log2 enrichment was -1.39.
With `ACCAUGCAGGUGGGCAUCUUUGGGAAGUGGGGCAAGGGGGGGAUAGGGAGGGGGGUAACACUUUGGGAACAGGUGGUCCCAGGUCGUUGC` the log2 enrichment was 1.07.
`AGUCCUGUGCUACACAUCGUAUGUACCGAAUCGGGAGGGAAAAAGGGAAAAAAAGGGAAAGUAUUAUGUUACGCCGUUCGGAUCUGCACU` gave a log2 enrichment of -0.469.
